Measured values collected from several papers.
Each line is one published result; not all experiments were run side by side. ± marks the error that the study gave.

| SMILES | cell line | assay | conditions | how to read | EC50 [µM] |
| --- | --- | --- | --- | --- | --- |
| Cc1ccc2nc(-c3ccccc3)c(CNc3cccc(C(F)(F)F)c3)n2c1 | CRL8155 | cell growth or viability | 48 h |  | > 50 |
| COc1cccc(Cc2cc(CCC(=O)NCCNc3cccc4c(S(=O)(=O)O)cccc34)nn(CC(=O)Nc3ccc(Br)cc3)c2=O)c1 | human neutrophils | calcium flux, agonist |  |  | 0.0018 ± 0.00089 |
| CCn1nc2c(c1Nc1nc(-c3ccc(-n4cnc(C)c4)c(OC)n3)cs1)CCCC2 | CHO APPwt/PS1 M146L | Aβ38 production, modulator |  |  | 0.499 ± 0.203 |
| Cc1ccc2nc(-c3ccc(F)c(F)c3)c(CN3CCN(c4ccc(F)cc4)CC3)n2c1 | CRL8155 | cell growth or viability | 48 h |  | 42.9 |
| Cc1cc(NC(=O)c2cccc(-n3cc(NC(=O)Nc4ccc(F)cc4)cn3)c2)ccn1 | SH-SY5Y | c-Jun phosphorylation, inhibitor, in-cell Western | added: 6-OHDA |  | > 10 |
| Cc1ccc2nc(-c3ccc(Cl)cc3)c(CN3CCN(c4cccc(C(F)(F)F)c4)CC3)n2c1 | CRL8155 | cell growth or viability | 48 h |  | > 50 |
| CCNC(=O)[C@@H]1CCCN1C(=O)[C@@H](NC(=O)[C@H](CCCNC(=N)N)NC(=O)[C@H](Cc1ccc(O)cc1)NC(=O)[C@H](CC(C)C)NC(=O)[C@H](CC(N)=O)NC(=O)[C@H](Cc1ccc(O)cc1)NC(=O)CN(C)C(=O)CCCCC(=O)O)C(C)C | human dermal microvascular endothelial cells |  | added: VEGF |  | 0.003 |
| Cc1ccc(CC(=O)c2c(O)c(O)cc3c(O)c(-c4c(C)cc5c(C(=O)Cc6ccc(C)cc6)c(O)c(O)cc5c4O)c(C)cc23)cc1 | PC3-ML | ATP-lite viability | 72 h |  | 2.5 |
| CC1=C(C2=C(C)C(=O)c3c(cc(O)c(O)c3Cc3ccccc3)C2=O)C(=O)c2cc(O)c(O)c(Cc3ccccc3)c2C1=O (racemic) | H23 human lung cancer | cell viability, ATP luminescence | 72 h |  | 0.25 ± 0.01 |
| C(=C/c1ccccc1)/c1ccccc1 | MOLT-3 | apoptosis, Hoechst nuclear staining | 24 h, 50% apoptosis induction |  | 50 |
| Cc1ccc2nc(-c3ccc(F)c(F)c3)c(CN3CCN(CCc4cccnc4)CC3)n2c1 | CRL8155 | cell growth or viability | 48 h |  | > 50 |
| NC(COc1cc(C(F)(F)F)cc(C(F)(F)F)c1)c1ccccc1 (stereo not drawn) | hiPSC cardiomyocytes | action potential prolongation, kinetic imaging cytometry, measured: APD75 |  |  | > 200 |
| CCC/C(=C\C1=C(C(F)(F)F)C(=O)c2ccccc2C1=O)C(=O)N(CC)CC | Pa03C cells | HIF1α reporter gene, luciferase reporter | 24 h, 1% oxygen hypoxia |  | 8.3 ± 1.23 |
| Cc1ccc2nc(-c3ccccc3)c(CN3CCCC3)n2c1 | CRL8155 | cell growth or viability | 48 h |  | > 50 |
| O=C(Cc1ccc([N+](=O)[O-])cc1)N[C@@H](Cc1c[nH]c2ccccc12)C(=O)NCC1(c2ccccn2)CCCCC1 | human neutrophils | chemotaxis, agonist |  |  | 1.4 ± 0.37 |
| CC(=O)Nc1nnc(N2CCN([C@@H](C)c3ccc4c(c3)OCO4)CC2)s1 | HEK293 | protein O-GlcNAcylation, RL2 immunoassay |  | higher = accumulation | 0.32 |
| CCC/C(=C\C1=C(OC)C(=O)c2ccccc2C1=O)C(=O)NOC | Pa03C cells | 3D spheroid co-culture | co-culture with CAF19 |  | 2.7 |
| Cc1ccc2nc(-c3ccccc3)c(CN3CCCCC3)n2c1 | CRL8155 | cell growth or viability | 48 h |  | > 50 |
| Nc1nc2c(ncn2[C@@H]2O[C@@H]3COP(=O)(O)O[C@H]4[C@@H](F)[C@H](n5cnc6c(N)ncnc65)O[C@@H]4CSP(=O)(O)O[C@H]2[C@@H]3O)c(=O)[nH]1 | THP1-Dual | IRF reporter, agonist | 24 h |  | 1.57 ± 0.01 |
| CCC/C(=C\C1=C(F)C(=O)c2ccccc2C1=O)C(=O)N(CC)CC | Pa03C cells | 3D spheroid co-culture | co-culture with CAF19 |  | 5.7 |
| Cc1ccc2nc(-c3ccccc3)c(CN3CCN(c4cccc(Cl)c4Cl)CC3)n2c1 | CRL8155 | cell growth or viability | 48 h |  | 33 |
| CC(C)[C@H](C(=O)Nc1ncc(F)s1)c1ccc(Cl)cc1 | HEK293 expressing human GPR43 | NF-κB reporter gene, luciferase | added: 10 ng/mL TNF-α |  | 12 |
| Cc1ccc(-c2cn3cc(C)ccc3n2)cc1 | CRL8155 | cell growth or viability | 48 h |  | 41.3 |
| CC(C)C[C@H](NC(=O)[C@H](CC(N)=O)NC(=O)[C@H](Cc1ccc(O)cc1)NC(=O)CNC(=O)CN(C)C(=O)CCCC(=O)O)C(=O)N[C@@H](Cc1ccc(O)cc1)C(=O)N[C@@H](CCCNC(=N)N)C(=O)N[C@H](C(=O)N[C@@H](CCCNC(=N)N)C(=O)N[C@@H](CO)C(N)=O)C(C)C | human dermal microvascular endothelial cells |  | added: VEGF |  | 0.015 |

Some of these lines once more:
| SMILES | cell line | assay | conditions | how to read | EC50 [µM] |
| --- | --- | --- | --- | --- | --- |
| CCC/C(=C\C1=C(F)C(=O)c2ccccc2C1=O)C(=O)N(CC)CC | Pa03C cells | 3D spheroid co-culture | co-culture with CAF19 |  | 5.7 |
